{"data": "Assay results pooled from the literature", "1-phosphatidylinositol 4,5-bisphosphate phosphodiesterase gamma-1 residues 21-1215": "1-phosphatidylinositol 4,5-bisphosphate phosphodiesterase gamma-1, residues 21-1215 (Rattus norvegicus, UniProt P10686)", "ppa": "Inorganic pyrophosphatase (ppa, Escherichia coli, UniProt P0A7A9)", "NTSR1": "Neurotensin receptor type 1 (NTSR1, Homo sapiens, UniProt P30989)", "C3ar1": "C3a anaphylatoxin chemotactic receptor (C3ar1, Mus musculus, UniProt O09047)", "note": "± gives the spread as reported.", "UniProt P30989, sequence (whole entry, looked up)": "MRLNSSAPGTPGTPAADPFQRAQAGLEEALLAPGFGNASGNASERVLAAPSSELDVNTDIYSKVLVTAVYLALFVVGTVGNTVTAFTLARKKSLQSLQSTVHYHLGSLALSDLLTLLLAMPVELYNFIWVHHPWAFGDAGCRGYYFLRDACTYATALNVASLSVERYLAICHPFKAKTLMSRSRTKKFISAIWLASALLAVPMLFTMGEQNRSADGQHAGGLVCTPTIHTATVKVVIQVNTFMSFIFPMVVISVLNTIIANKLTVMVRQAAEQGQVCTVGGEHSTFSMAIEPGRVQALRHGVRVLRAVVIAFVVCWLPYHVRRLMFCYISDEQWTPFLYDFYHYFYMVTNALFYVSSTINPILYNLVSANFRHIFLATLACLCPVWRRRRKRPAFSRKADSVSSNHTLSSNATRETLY", "UniProt O09047, sequence (whole entry, looked up)": "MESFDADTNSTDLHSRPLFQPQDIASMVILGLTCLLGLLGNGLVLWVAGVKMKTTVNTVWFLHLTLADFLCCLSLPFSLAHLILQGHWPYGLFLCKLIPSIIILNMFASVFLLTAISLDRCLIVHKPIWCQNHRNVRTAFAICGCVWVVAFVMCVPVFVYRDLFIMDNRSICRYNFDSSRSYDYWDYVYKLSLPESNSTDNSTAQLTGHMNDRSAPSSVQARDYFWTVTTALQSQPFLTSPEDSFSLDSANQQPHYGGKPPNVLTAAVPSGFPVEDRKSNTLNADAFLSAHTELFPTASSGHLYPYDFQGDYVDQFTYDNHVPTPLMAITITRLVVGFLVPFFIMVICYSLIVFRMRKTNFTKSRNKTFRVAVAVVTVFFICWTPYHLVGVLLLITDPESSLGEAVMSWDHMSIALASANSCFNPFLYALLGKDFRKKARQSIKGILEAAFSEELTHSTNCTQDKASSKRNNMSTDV", "UniProt P10686, sequence (21-1215, looked up)": "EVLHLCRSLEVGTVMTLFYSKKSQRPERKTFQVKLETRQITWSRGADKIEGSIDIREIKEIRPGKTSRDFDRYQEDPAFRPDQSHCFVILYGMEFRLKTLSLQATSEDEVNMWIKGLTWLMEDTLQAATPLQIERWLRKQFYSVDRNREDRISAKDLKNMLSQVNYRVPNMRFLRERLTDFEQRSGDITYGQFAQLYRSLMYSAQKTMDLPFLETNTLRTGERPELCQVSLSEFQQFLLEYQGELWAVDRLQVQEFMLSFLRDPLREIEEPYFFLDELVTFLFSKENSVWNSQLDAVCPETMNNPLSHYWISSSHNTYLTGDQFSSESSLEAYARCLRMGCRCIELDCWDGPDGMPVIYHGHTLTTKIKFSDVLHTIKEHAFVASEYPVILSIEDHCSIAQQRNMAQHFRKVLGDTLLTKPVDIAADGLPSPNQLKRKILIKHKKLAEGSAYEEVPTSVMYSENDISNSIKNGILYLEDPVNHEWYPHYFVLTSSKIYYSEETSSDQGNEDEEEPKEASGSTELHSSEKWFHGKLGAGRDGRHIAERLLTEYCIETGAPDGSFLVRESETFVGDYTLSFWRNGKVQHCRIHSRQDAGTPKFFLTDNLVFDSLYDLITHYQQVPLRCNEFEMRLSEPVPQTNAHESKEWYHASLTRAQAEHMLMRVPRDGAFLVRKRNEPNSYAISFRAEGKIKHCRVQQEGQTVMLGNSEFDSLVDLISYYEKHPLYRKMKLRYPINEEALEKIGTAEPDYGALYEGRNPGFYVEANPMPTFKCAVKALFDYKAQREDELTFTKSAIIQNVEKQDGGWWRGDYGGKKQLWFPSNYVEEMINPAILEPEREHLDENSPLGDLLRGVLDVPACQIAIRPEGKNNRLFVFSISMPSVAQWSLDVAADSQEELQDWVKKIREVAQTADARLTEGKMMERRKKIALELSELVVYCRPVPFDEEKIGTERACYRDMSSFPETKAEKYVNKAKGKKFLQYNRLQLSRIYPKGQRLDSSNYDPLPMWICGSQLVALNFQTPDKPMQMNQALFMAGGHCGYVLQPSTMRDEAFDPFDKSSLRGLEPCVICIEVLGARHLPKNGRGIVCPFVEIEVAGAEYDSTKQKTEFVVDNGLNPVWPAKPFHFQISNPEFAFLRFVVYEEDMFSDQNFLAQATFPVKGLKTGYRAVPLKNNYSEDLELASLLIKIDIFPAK", "UniProt P0A7A9, sequence (whole entry, looked up)": "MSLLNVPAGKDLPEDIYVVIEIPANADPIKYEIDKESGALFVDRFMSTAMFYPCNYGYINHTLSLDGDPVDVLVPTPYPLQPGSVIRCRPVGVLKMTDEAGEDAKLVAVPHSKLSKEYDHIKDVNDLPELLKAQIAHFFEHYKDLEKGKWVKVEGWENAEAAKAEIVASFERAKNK", "UniProt Q92847, sequence (whole entry, unmodified, looked up)": "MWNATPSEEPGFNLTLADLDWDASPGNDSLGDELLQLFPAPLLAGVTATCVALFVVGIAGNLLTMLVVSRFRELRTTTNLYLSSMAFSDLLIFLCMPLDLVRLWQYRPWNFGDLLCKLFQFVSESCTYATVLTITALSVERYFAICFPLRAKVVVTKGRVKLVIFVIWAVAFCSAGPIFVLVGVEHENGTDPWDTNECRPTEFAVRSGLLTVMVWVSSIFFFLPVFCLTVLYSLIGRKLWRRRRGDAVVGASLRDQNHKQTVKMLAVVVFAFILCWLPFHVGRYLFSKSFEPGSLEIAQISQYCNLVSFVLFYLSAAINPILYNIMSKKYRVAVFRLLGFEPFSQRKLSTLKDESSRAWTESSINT", "UniProt O15111, sequence (whole entry, looked up)": "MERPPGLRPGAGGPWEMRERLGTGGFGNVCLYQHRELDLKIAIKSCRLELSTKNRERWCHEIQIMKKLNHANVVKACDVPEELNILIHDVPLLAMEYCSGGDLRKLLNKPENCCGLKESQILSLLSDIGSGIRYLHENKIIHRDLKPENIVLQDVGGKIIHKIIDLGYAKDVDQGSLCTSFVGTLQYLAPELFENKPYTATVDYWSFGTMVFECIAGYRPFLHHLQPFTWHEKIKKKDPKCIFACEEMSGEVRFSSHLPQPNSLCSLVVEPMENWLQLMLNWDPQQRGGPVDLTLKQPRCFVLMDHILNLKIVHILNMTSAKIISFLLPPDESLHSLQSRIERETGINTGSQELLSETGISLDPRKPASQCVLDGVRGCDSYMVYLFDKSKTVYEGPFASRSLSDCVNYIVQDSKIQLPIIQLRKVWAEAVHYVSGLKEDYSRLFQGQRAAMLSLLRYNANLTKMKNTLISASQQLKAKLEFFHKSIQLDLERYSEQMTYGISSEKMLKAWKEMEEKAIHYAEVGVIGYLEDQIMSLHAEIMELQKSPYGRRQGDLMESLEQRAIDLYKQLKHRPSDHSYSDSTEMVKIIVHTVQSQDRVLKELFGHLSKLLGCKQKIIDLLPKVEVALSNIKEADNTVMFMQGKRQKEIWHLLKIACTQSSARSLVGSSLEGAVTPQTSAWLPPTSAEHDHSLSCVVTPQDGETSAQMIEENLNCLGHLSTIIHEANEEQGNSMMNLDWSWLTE", "UniProt P43220, sequence (whole entry, unmodified, looked up)": "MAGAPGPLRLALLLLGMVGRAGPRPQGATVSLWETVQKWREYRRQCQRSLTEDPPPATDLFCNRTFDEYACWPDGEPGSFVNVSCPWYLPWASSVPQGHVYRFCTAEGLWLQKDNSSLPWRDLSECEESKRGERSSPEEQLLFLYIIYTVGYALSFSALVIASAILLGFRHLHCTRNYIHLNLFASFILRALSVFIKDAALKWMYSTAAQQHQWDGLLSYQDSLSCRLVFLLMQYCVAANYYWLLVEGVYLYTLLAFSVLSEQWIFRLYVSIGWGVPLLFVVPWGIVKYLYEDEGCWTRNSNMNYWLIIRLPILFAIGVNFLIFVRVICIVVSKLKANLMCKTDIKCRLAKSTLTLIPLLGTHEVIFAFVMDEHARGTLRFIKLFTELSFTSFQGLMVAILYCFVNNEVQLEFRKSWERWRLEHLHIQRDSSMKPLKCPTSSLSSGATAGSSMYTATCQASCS", "UniProt P60484, sequence (whole entry, looked up)": "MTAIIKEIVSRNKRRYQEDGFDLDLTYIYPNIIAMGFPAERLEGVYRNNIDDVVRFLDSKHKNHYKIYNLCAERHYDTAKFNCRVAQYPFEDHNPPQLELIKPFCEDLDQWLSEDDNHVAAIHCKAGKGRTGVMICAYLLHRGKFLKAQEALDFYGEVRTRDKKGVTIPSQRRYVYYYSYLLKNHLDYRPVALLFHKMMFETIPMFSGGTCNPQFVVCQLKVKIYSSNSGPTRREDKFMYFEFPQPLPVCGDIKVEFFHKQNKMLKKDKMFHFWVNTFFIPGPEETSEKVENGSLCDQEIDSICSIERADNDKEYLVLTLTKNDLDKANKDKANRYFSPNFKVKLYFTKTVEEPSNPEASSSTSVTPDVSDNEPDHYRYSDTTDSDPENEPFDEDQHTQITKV", "UniProt Q15391, sequence (whole entry, unmodified, looked up)": "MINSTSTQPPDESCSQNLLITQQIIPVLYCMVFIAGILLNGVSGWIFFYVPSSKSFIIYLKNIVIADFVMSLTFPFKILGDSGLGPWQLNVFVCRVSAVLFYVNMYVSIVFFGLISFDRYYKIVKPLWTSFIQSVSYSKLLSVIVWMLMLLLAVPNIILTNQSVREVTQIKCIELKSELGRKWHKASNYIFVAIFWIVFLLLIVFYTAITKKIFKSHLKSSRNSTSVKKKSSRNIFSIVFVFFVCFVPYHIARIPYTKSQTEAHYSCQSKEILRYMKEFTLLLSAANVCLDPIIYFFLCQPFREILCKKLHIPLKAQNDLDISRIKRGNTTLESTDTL", "UniProt Q9UKP6, sequence (whole entry, looked up)": "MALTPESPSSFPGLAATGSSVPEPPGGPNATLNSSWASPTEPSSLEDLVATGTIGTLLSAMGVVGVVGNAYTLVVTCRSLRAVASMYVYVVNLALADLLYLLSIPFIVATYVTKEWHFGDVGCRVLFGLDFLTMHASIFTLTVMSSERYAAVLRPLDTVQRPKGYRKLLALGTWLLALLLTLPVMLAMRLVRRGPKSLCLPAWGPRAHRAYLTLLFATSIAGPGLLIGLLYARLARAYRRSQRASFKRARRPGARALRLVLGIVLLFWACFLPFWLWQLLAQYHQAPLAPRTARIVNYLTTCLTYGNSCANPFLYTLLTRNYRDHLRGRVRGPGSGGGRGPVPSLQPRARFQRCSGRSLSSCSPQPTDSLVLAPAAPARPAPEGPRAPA"}
{"SMILES": "CC(C)C[C@H](NC(=O)[C@H](Cc1ccccc1)NC(=O)[C@H](CCCNC(=N)N)NC(=O)[C@H](CCC(N)=O)NC(=O)[C@H](CC(C)C)NC(=O)C(C)(C)NC(=O)[C@H](C)NC(=O)[C@H](CCC(=O)O)NC(=O)[C@H](CCC(=O)O)NC(=O)[C@H](CCCCNC(=O)COCCOCCNC(=O)COCCOCCNC(=O)CC[C@H](NC(=O)CCCCCCCCCCCCCCCCCCC(=O)O)C(=O)O)NC(=O)[C@H](CC(C)C)NC(=O)[C@H](Cc1ccc(O)cc1)NC(=O)[C@H](CO)NC(=O)[C@@H](NC(=O)[C@H](CC(=O)O)NC(=O)[C@H](CO)NC(=O)[C@@H](NC(=O)[C@H](Cc1ccccc1)NC(=O)[C@@H](NC(=O)CNC(=O)[C@H](CCC(=O)O)NC(=O)C(C)(C)NC(=O)[C@@H](N)Cc1c[nH]cn1)[C@@H](C)O)[C@@H](C)O)C(C)C)C(=O)N[C@@H](CCC(=O)O)C(=O)N[C@@H](Cc1c[nH]cn1)C(=O)N[C@@H](CC(C)C)C(=O)N[C@H](C(N)=O)C(C)C", "tested on": "GLP2R (Homo sapiens, UniProt O95838)", "assay": "agonist", "endpoint": "EC50", "result": "> 5 µM"}
{"SMILES": "Cc1cc(C)c(S(=O)(=O)Nc2cccc(C(F)(F)F)c2)c(C)c1", "tested on": "1-phosphatidylinositol 4,5-bisphosphate phosphodiesterase gamma-1 residues 21-1215", "assay": "enzyme activity, activator", "system": "lipid vesicles", "conditions": "15 min preincubation, together with: XY-69 substrate 0.5 µM", "endpoint": "EC50", "result": "> 100 µM"}
{"SMILES": "COc1ccc(Br)cc1C[N+](C)(C)CCCN1c2ccccc2CCc2ccc(Cl)cc21", "tested on": "ppa", "assay": "inhibitor, counter-screen, coupling enzyme alone", "endpoint": "IC50", "result": "28 µM"}
{"SMILES": "CC(C)[C@H](NC(=O)[C@@H]1CSSC(C)(C)[C@H](NC(=O)[C@@H](N)CC(=O)O)C(=O)N[C@@H](Cc2ccccc2)C(=O)N[C@H](Cc2c[nH]c3ccccc23)C(=O)N[C@@H](CCCN)C(=O)N[C@@H](Cc2ccc(O)cc2)C(=O)N1)C(=O)O", "tested on": "UTS2R (Homo sapiens, UniProt Q9UKP6)", "assay": "Gi3 activation, agonist, BRET2", "system": "HEK293", "endpoint": "EC50", "result": "0.0195 µM"}
{"SMILES": "COc1ccccc1C1CCN(c2nc(C3(F)CC3)nc3ccc(N(C)CCN4CCOCC4)cc23)CC1", "tested on": "NTSR1", "assay": "β-arrestin recruitment, agonist", "endpoint": "EC50", "result": "7.46 µM"}
{"SMILES": "COC1CN([C@H]2CC[C@H]([C@@]3(C)Oc4c(Cl)cc(C(=O)NCc5c(SC)cc(C)[nH]c5=O)c(C)c4O3)CC2)C1", "assay": "RNA-seq, measured: MTERF2", "system": "human, whole blood", "conditions": "dose not given, 24 h", "how to read": "reference: pretreatment baseline", "endpoint": "log2 fold change", "result": 1.18}
{"SMILES": "COc1ccc(OC[C@H]2c3cccn3CC(=O)N2Cc2cccc(F)c2)cc1", "tested on": "Grin2a/Grin2d (Rattus norvegicus, UniProt Q00959+Q62645)", "assay": "activator", "system": "cells", "endpoint": "EC50", "result": "1.8 µM"}
{"SMILES": "Cn1c(=O)n(C2CCC(=O)NC2=O)c2ccc(C3CCN(CC(=O)Nc4cccc(CS(=O)(=O)N5CC[C@H](Nc6cccc(-c7sc(C(=O)O)c(OCC(=O)O)c7Cl)c6)CC5(C)C)c4)CC3)cc21 (stereo partly shown)", "tested on": "PTEN (Homo sapiens, UniProt P60484)", "assay": "phosphatase activity", "conditions": "together with: DiFMUP substrate", "endpoint": "EC50", "result": "> 10 µM"}
{"SMILES": "Cc1ccc2c(c1)C(O)(CC(=O)c1ccc3c(c1)OCCO3)C(=O)N2 (stereo not shown)", "tested on": "ppa", "assay": "enzyme activity, inhibitor", "endpoint": "IC50", "result": "> 100 µM"}
{"SMILES": "COc1ccccc1C1CCN(c2nc(C3(C(F)(F)F)CCCC3)nc3ccc(N(C)CCO)cc23)CC1", "tested on": "NTSR1", "assay": "β-arrestin recruitment, agonist", "endpoint": "EC50", "result": "18 µM"}
{"SMILES": "COc1ccccc1N1CCN(c2nc(C3CC3)nc3cc(C(F)(F)F)c(OC)cc23)CC1", "tested on": "NTSR1", "assay": "β-arrestin recruitment, agonist", "endpoint": "EC50", "result": "4.75 µM"}
{"SMILES": "Nc1ncc(-c2cc(-c3cnn(CC(F)(F)F)c3)ncc2F)nc1C(=O)NC1CNCC(F)C1 (stereo not shown)", "tested on": "BLK", "assay": "KINOMEscan", "conditions": "1 µM", "how to read": "reference: DMSO control", "endpoint": "remaining binding", "result": "100%"}
{"SMILES": "Cc1ncsc1-c1ccc(C(C)NC(=O)C2CC(O)CN2C(=O)C(NC(=O)CCCCCCCCCCN2CCCC(Nc3ncc(Cl)c(Nc4ccccc4S(=O)(=O)C(C)C)n3)C2)C(C)(C)C)cc1 (stereo not shown)", "tested on": "22Rv1", "assay": "RNA-seq, measured: NUMBL mRNA", "conditions": "concentration not given", "how to read": "reference: DMSO", "endpoint": "log2 fold change", "result": -1.12}
{"SMILES": "O=c1ccn([C@@H]2O[C@H](COP(=O)(O)CP(=O)(O)O)[C@@H](O)[C@H]2O)c(=S)[nH]1", "tested on": "P2Y purinoceptor 14 (P2RY14, Homo sapiens, UniProt Q15391, D81A)", "assay": "calcium mobilisation, agonist", "system": "cells with Gαqi5", "conditions": "receptor mutant D81A", "endpoint": "EC50", "result": "0.241 µM"}
{"SMILES": "O=C(CNC(=O)c1ccc(Cl)cc1)NO", "tested on": "ureC (Bifidobacterium longum, UniProt A0ACD7UN78)", "endpoint": "EC50", "result": "26.5 ± 0.2 µM"}
{"SMILES": "O=C(O)Cc1ccccc1Nc1c(Cl)cccc1Cl", "tested on": "1-phosphatidylinositol 4,5-bisphosphate phosphodiesterase gamma-1 residues 21-1215", "assay": "enzyme activity, activator", "system": "lipid vesicles", "conditions": "15 min preincubation, together with: XY-69 substrate 0.5 µM", "endpoint": "EC50", "result": "49 µM"}
{"SMILES": "CC(C)C[C@H](NC(=O)[C@@H](N)[C@@H](C)O)C(=O)N[C@@H](CCC(N)=O)C(=O)N1CCC[C@H]1C(=O)N1CCC[C@H]1C(=O)N[C@@H](C)C(=O)N[C@@H](CO)C(=O)N[C@@H](CO)C(=O)N[C@@H](CCCNC(=N)N)C(=O)N[C@@H](CCCNC(=N)N)C(=O)N[C@@H](CCCNC(=N)N)C(=O)N[C@@H](Cc1c[nH]cn1)C(=O)N[C@@H](Cc1ccccc1)C(=O)N[C@@H](Cc1c[nH]cn1)C(=O)N[C@@H](Cc1c[nH]cn1)C(=O)N[C@@H](C)C(=O)N[C@@H](CC(C)C)C(=O)N1CCC[C@H]1C(=O)N1CCC[C@H]1C(=O)N[C@@H](C)C(=O)N[C@@H](CCCNC(=N)N)C(=O)O", "tested on": "C3ar1", "assay": "beta-arrestin 2 recruitment, agonist, NanoBiT", "system": "mouse", "endpoint": "EC50", "result": "0.115 µM"}
{"SMILES": "COc1ccccc1C1CCN(c2nc(C3CCCC3)nc3ccc(N(C)CCO)cc23)CC1", "tested on": "NTSR1", "assay": "β-arrestin recruitment, agonist", "endpoint": "EC50", "result": "15.1 µM"}
{"SMILES": "COc1ccccc1C1CCN(c2nc(C3(F)CC3)nc3ccc(N(C)CCO)cc23)CC1", "tested on": "NTSR1", "assay": "β-arrestin recruitment, agonist", "endpoint": "EC50", "result": "5.99 µM"}
{"SMILES": "COc1cc(C2C(NC(=O)c3ccc(NC(=O)OC(C)(C)C)cc3)(C(=O)O)C(c3ccc(OC(=O)c4cccs4)c(OC)c3)C2(NC(=O)c2ccc(NC(=O)OC(C)(C)C)cc2)C(=O)O)ccc1OC(=O)c1cccs1 (stereo not shown)", "tested on": "GLP1R (Homo sapiens, UniProt P43220, W33A)", "assay": "cAMP, agonist", "endpoint": "EC50", "result": "0.741 µM"}
{"SMILES": "COc1ccc(C(=O)c2c(C(=O)NCCCN(C)C)oc3ccc(Cl)cc3c2=O)cc1OC", "tested on": "GHSR (Homo sapiens, UniProt Q92847, N305A)", "assay": "intracellular Ca2+, agonist", "system": "HEK293T transiently transfected", "endpoint": "EC50", "result": "0.589 µM"}
{"SMILES": "COc1ccccc1C1CCN(c2nc(C#CC3CC3)nc3ccc(N(C)CCO)cc23)CC1", "tested on": "NTSR1", "assay": "β-arrestin recruitment, agonist", "endpoint": "EC50", "result": "~15600 µM"}
{"SMILES": "COc1ccccc1C1CCN(c2nc(C3(F)CC3)nc3cnc(N(C)CCO)cc23)CC1", "tested on": "NTSR1", "assay": "β-arrestin recruitment, agonist", "endpoint": "EC50", "result": "13 µM"}
{"SMILES": "Cc1nn(-c2cccc(N)c2)c(=O)c2cnc(Nc3ccc(N4CCNCC4)cc3)nc12", "tested on": "CHUK (Homo sapiens, UniProt O15111)", "assay": "enzyme activity, inhibitor", "endpoint": "IC50", "result": "> 10 µM"}
{"SMILES": "CC(C)C[C@H](NC(=O)[C@H](C)NC(=O)[C@H](CO)NC(=O)[C@@H]1CCCN1C(=O)[C@@H]1CCCN1C(=O)[C@H](CCC(N)=O)NC(=O)[C@H](CC(C)C)NC(=O)[C@@H](N)[C@@H](C)O)C(=O)N[C@@H](CCCNC(=N)N)C(=O)N[C@@H](CCCNC(=N)N)C(=O)N[C@@H](CCCNC(=N)N)C(=O)N[C@@H](Cc1c[nH]cn1)C(=O)N[C@@H](Cc1ccc(O)cc1)C(=O)N[C@@H](Cc1c[nH]cn1)C(=O)N[C@@H](Cc1c[nH]cn1)C(=O)N[C@@H](C)C(=O)N[C@@H](CC(C)C)C(=O)N1CCC[C@H]1C(=O)N1CCC[C@H]1C(=O)N[C@@H](CO)C(=O)N[C@@H](CCCNC(=N)N)C(=O)O", "tested on": "C3ar1", "assay": "GoA protein dissociation, agonist, NanoBiT", "endpoint": "EC50", "result": "0.214 µM"}
{"note": "For quick reference, copied from above:"}
{"SMILES": "O=C(CNC(=O)c1ccc(Cl)cc1)NO", "tested on": "ureC (Bifidobacterium longum, UniProt A0ACD7UN78)", "endpoint": "EC50", "result": "26.5 ± 0.2 µM"}
{"SMILES": "O=C(O)Cc1ccccc1Nc1c(Cl)cccc1Cl", "tested on": "1-phosphatidylinositol 4,5-bisphosphate phosphodiesterase gamma-1 residues 21-1215", "assay": "enzyme activity, activator", "system": "lipid vesicles", "conditions": "15 min preincubation, together with: XY-69 substrate 0.5 µM", "endpoint": "EC50", "result": "49 µM"}
{"SMILES": "CC(C)C[C@H](NC(=O)[C@@H](N)[C@@H](C)O)C(=O)N[C@@H](CCC(N)=O)C(=O)N1CCC[C@H]1C(=O)N1CCC[C@H]1C(=O)N[C@@H](C)C(=O)N[C@@H](CO)C(=O)N[C@@H](CO)C(=O)N[C@@H](CCCNC(=N)N)C(=O)N[C@@H](CCCNC(=N)N)C(=O)N[C@@H](CCCNC(=N)N)C(=O)N[C@@H](Cc1c[nH]cn1)C(=O)N[C@@H](Cc1ccccc1)C(=O)N[C@@H](Cc1c[nH]cn1)C(=O)N[C@@H](Cc1c[nH]cn1)C(=O)N[C@@H](C)C(=O)N[C@@H](CC(C)C)C(=O)N1CCC[C@H]1C(=O)N1CCC[C@H]1C(=O)N[C@@H](C)C(=O)N[C@@H](CCCNC(=N)N)C(=O)O", "tested on": "C3ar1", "assay": "beta-arrestin 2 recruitment, agonist, NanoBiT", "system": "mouse", "endpoint": "EC50", "result": "0.115 µM"}
